Measured values pooled from the literature.
Lines come from different studies, so protocols differ. Several values in a cell are separate wells, animals, samples, runs or records. Numbers after ± are the reported error.

`CC(C)[C@@H]1NC(=O)CNC(=O)[C@H](CC(N)=O)NC(=O)[C@H](CCCNC(=N)N)NC(=O)[C@H](Cc2ccc(O)cc2)NC(=O)[C@H](C(C)C)NC(=O)[C@@H](NC(=O)[C@@H](NC(=O)[C@H](CC(N)=O)NC(=O)[C@H](Cc2c[nH]c3ccccc23)NC(=O)[C@H](C)NC(=O)[C@H](Cc2ccccc2)NC(=O)CN)C(C)C)CSSC[C@@H](C(=O)N[C@@H](Cc2cnc[nH]2)C(=O)N[C@@H](CCCNC(=N)N)C(=O)N[C@@H](CCCNC(=N)N)C(=O)N[C@@H](C)C(=O)N[C@@H](CC(N)=O)C(N)=O)NC(=O)[C@H](C(C)C)NC(=O)[C@H](CCCNC(=N)N)NC1=O` gave a remaining peptide of 23.7% and 22.2% and 28.7% (HPLC; mouse kidney homogenate; 2560 µM, 6.00 h, 37 °C, 50 mg/mL tissue).
`CCCSc1ccc2nc(NC(=O)OC)[nH]c2c1` gave a plateletcrit of 0.08% (mouse, blood; oral, 50 mg/kg, tolerability, mean).
For `CC(C)C[C@@H](NC(=O)[C@H](Cc1ccccc1)NC(=O)CNC(=O)[C@@H](C)NC(=O)[C@H](Cc1ccc(O)cc1)NC(=O)[C@@H]1CCCN1C(=O)[C@@H]1CCCN1C(=O)c1ccc[n+](C)c1)C(=O)O`, the half-life was 0.15 h (HPLC-UV; rat whole brain homogenate; 37 °C).
Under “treatment-related facial nerve disorder incidence”, `CN[C@@H](C)C(=O)N[C@H]1CN(S(=O)(=O)c2cccc(S(=O)(=O)N3CC[C@H]4CC[C@@H](C(=O)NC(c5ccccc5)c5ccccc5)N4C(=O)[C@@H](NC(=O)[C@H](C)NC)C3)c2)CC[C@H]2CC[C@@H](C(=O)NC(c3ccccc3)c3ccccc3)N2C1=O` is recorded as 0% (patients with advanced solid tumours; 20 mg, phase I monotherapy).
`COc1ncccc1-c1cnn2ccc(N3CCN(C(=O)OC(C)C)CC3)nc12` has a drug concentration of 3.2 µM (mouse nerve ligation model, plasma; oral, 10 mg/kg, 30 min after last dose, repeat dosing day 1).
The MCH of `CCc1ccc(CC/C=C/c2ccc3c(c2)C(=O)CC3)cc1` is reported as 18.9 pg (Sprague-Dawley rat, female, blood; oral, 450 mg/kg/day, 14 days).
`C[C@@H]1OC(=O)NN=C1c1ccc(-c2ccc(F)cc2)c(C(F)(F)F)c1`: “patients with adverse event” 100% (phase I trial, refers to: Presyncope all grades; human patients; 10 mg loading then 0.5 mg daily).
`CC1(C)[C@H](C(=O)O[C@H](C#N)c2cccc(Oc3ccccc3)c2)[C@@H]1C=C(Br)Br` — result for “enzyme contribution to clearance”: 0.4% (refers to: CYP2B6; human, age 1 year, recombinant human CYP2B6; 0.1 µM).
Under “adverse event incidence”, `[O-][S+]1CCc2nc(N3CCC(c4ncc(Cl)cn4)CC3)nc(NC3(CO)CCC3)c21` (centres unmarked) is recorded as 0% (refers to: Dizziness; healthy male humans; multiple doses, all groups).
With `CC(=O)c1c(C)c2cnc(Nc3ccc(C4CCN(CCS(C)(=O)=O)CC4)cn3)nc2n(C2CCCC2)c1=O` the AUC(0-inf) was 1110 ng·h/mL (human, dose-escalation trial, plasma; oral, 25 mg twice daily, day 21, multiple doses).
Under “treatment-emergent adverse events”, `COc1cc(N2CCC(N3CCN(C)CC3)CC2)ccc1Nc1ncnc(Nc2ccccc2S(=O)(=O)C(C)C)n1` is recorded as 6 number (percent) (refers to: Constipation; Japanese patients with solid tumours; oral, dose not given, all grades).
`COc1ccc([C@@H]2CC(=O)c3c(O)cc(O)cc3O2)cc1O`: “urinary excreted amount, total” 5030 ± 3030 ng (male Sprague-Dawley rat, lean; oral, 100 mg/kg of neohesperidin, 0 to 12 h, after β-glucuronidase/sulfatase hydrolysis).
For `CC(C)(C)c1cc(-n2nc3ccccc3n2)c(O)c(C(C)(C)C)c1`, “daily dermal uptake, percentile” read 5.03 ng/kg body weight/day (exposure assessment; human, age 21-60 years; concentration not given, cream, 95th percentile).
For `COc1cc2c(Oc3ccc4[nH]c(C)cc4c3F)ccnc2cc1OCC1(N)CC1`, the Anorexia incidence was 18.2% (paediatric recurrent refractory sarcoma; 12 mg).
The potassium of `Clc1ccc(-c2ccccc2)cc1` is reported as 5 ± 1 mmol/L (Sprague-Dawley rats, female, serum; inhalation, 23 µg/rat, 4 h after exposure).
`O[C@H]1CCCN[C@@H]1CCCn1cnc2c(Cl)c(Cl)ccc21`: “Vd/F at steady state” 859 L (healthy humans, plasma; oral, 150 mg, added: nintedanib 150 mg).
With `COc1cc2c(cc1OC)CN(CCc1ccc(NC(=O)c3cccc4c(=O)c5cccc(OC)c5[nH]c34)cc1)CC2` the half-life was 10.1 h (CD-1 mouse, male, lung; intraperitoneal, 0.3 mg/kg).
Under “patients with back pain”, `O=C1Nc2cc3[nH]nc(-c4ccncc4)c3cc2CN1Cc1ccccc1` is recorded as 100% (CTCAE v4.03; advanced solid tumour patients; intravenous, 1.8 mg/kg, schedules 1/2).
`CCCC[C@H]1C(=O)N(C)[C@@H](CCCC)C(=O)N[C@@H](CCCCNC(=O)CN2CCN(CC(=O)O)CCN(CC(=O)O)CC2)C(=O)N[C@H](C(=O)NCC(N)=O)CSCC(=O)N[C@@H](Cc2ccc(O)cc2)C(=O)N(C)[C@@H](C)C(=O)N[C@@H](CC(N)=O)C(=O)N2CCC[C@H]2C(=O)N[C@@H](Cc2c[nH]cn2)C(=O)N[C@@H](CCC(=O)O)C(=O)N2C[C@H](O)C[C@H]2C(=O)N[C@@H](Cc2c[nH]c3ccccc23)C(=O)N[C@@H](CO)C(=O)N[C@@H](Cc2cn(CC(=O)O)c3ccccc23)C(=O)N1C` [gallium-68 labelled] has an intact fraction of no less than 99% (radio-HPLC; PBS and FBS; up to 2 h).
For `C[C@@H]1COCCN1c1cc(-c2ccnn2C)c2ccnc(-c3ccn[nH]3)c2n1`, lymphocyte count read “no effect” (female BALB/c mice; dose not given, 48 h, added: total body irradiation 6 Gy; relative to: irradiation alone).
With `CC(C)[C@H](N)C(=O)NCCCS(=O)(=O)O` the plasma concentration was 90 ng/mL (human; oral, 265 mg twice daily, 7 h post-dose, steady state, week 65).
For `Cc1cccc(Cn2nc(C3CC3)c3c(NC(=O)c4cnc5cc(OCCN6CCN(C)CC6)ccn45)cccc32)n1`, “all-cause adverse events” read 45.5% (CTCAE v4.03, refers to: nausea; platinum-resistant ovarian cancer patients; oral, dose not given, added: pembrolizumab IV every 3 weeks).
The NOEC of `COc1ccnc(C(=O)N[C@H]2COC(=O)[C@H](Cc3ccccc3)[C@@H](OC(=O)C(C)C)[C@H](C)OC2=O)c1OCOC(=O)C(C)C` is reported as 0.37 µg/L (survival, growth, reproduction; Pimephales promelas, flow-through water; concentration not given, 32 days).
`C1=Cc2nc1cc1ccc([n-]1)c(C1CC1)c1nc(cc3ccc([n-]3)c2C2CC2)C=C1.CC(=O)[O-].[Mn+3]` — result for “mean plasma concentration”: 245 ng/mL (LC-MS/MS; Sprague-Dawley rat, plasma; oral gavage, dose not given, 120 min).
Under “decreased appetite, grade ≥3”, `C=CC(=O)N1CC[C@H](n2nc(C#Cc3cc(OC)cc(OC)c3)c3c(N)ncnc32)C1` is recorded as 4.7% (human patients, all; oral, dose not given, QD regimen, adverse drug reaction).
`COc1cc2nccc(Oc3ccc(NC(=O)C4(C(=O)Nc5ccc(F)cc5)CC4)cc3)c2cc1OC` — result for “trough plasma concentration”: 252 ng/mL (human, plasma; oral, 60 mg once daily, 1 month, added: grapefruit juice).
`N#C/N=C1\SCCN1Cc1ccc(Cl)nc1` gave a concentration of 0.05 mg/kg dry soil (soil; 28 days, nominal 1.1).
`CC(C)(O)c1cc(Nc2cc(Oc3cn(C4CC4)nc3C3CCOCC3)ccn2)ccn1` — result for “treatment-emergent adverse events”: 0% (Cough; advanced cancer patients, dose escalation; oral, dose not given, 3 weeks on/1 off, all causality grade ≥3).
`CO[C@H]1C[C@@H]2CC[C@@H](C)[C@@](O)(O2)C(=O)C(=O)N2CCCC[C@H]2C(=O)O[C@H]([C@H](C)C[C@@H]2CC[C@@H](OC(=O)NCCOCCOCCOCCOCCOCCOCCOCCOCCC(=O)N3CCc4cc(Cn5nc(-c6ccc7oc(N)nc7c6)c6c(N)ncnc65)ccc4C3)[C@H](OC)C2)C[C@@H](O)[C@H](C)/C=C(\C)[C@@H](O)[C@@H](OC)C(=O)[C@H](C)C[C@H](C)/C=C/C=C/C=C/1C` — result for “dose-reducing adverse events”: 0% (phase 1 dose escalation, refers to: fatigue; advanced solid tumour patients; intravenous, 8 mg weekly, grade ≥3).
`CCC[C@@](N)(CO)CCc1ccc(OCCCCCC(C)C)cc1` gave an AUC(0-inf) of 3.22 µM·h (dog, male hounds, plasma; oral capsule, 2.5 mg/kg, geometric mean).
`C[C@@H](NC(=O)N1C(=O)[C@H](Cc2ccnc(N)c2)[C@H]1C(=O)O)C1CCCCC1`: “incidence of AEs excluding prolonged aPTT” 37.5% (healthy adult Chinese volunteers; continuous intravenous infusion, 1.0 mg/kg/h, 5-day infusion, CTCAE 5.0 grading).
For `NCCCC[C@@H]1NC(=O)[C@@H](Cc2c[nH]c3ccccc23)NC(=O)[C@H](c2ccccc2)NC(=O)[C@@H]2C[C@@H](OC(=O)NCCN)CN2C(=O)[C@H](Cc2ccccc2)NC(=O)[C@H](Cc2ccc(OCc3ccccc3)cc2)NC1=O`, “subjects with adverse event Flatulence” read 7% (healthy human volunteers; 600 µg twice daily).
`CN1CC[C@@H](c2c(O)cc(O)c3c(=O)cc(-c4ccc(C(F)(F)F)cc4Cl)oc23)[C@@H]1CO`: “patients with adverse event” 25% (refers to: Chills; AML; oral, 150 mg, intermittent dosing).
`O=C(Nc1ccccc1)C1CCN(C(=O)Oc2cccnc2)CC1` — result for “change in Drowsy score”: 13 (psychotropic effects VAS; healthy women; 20 mg; relative to: pre-dose baseline, direction not given).
For `COc1ccc2c(c1)CN(C(=O)CCN1CCC(Cc3ccccc3)CC1)CC[S@@+]2[O-]`, QT interval read “no effect” (ventricular rhythm; dogs, chronic AV block; intravenous, 3 mg/kg).
`C=CC(=O)Nc1cc(Nc2nccc(Nc3cc(Cl)c(F)cc3C(C)(C)O)n2)c(OC)cc1N1CC[C@@H](N(C)C)C1`: “aspartate aminotransferase increased TEAE” 11.8% (human; oral, dose not given).
`C[C@]1(CO)Cc2ncn(-c3ccc(C#N)c(Cl)c3)c2C(=O)O1` — result for “subjects with drug-related headache”: 0% (human; 10 mg single dose).
`O=S(=O)(Nc1ccccc1)c1ccc(NC(=S)Nc2ccccc2)cc1`: “relative organ weight” 0.36% (female mice, spleen; oral, 5 mg/kg daily 14 days; relative to: body weight).

Some of these lines once more:
Under “treatment-related facial nerve disorder incidence”, `CN[C@@H](C)C(=O)N[C@H]1CN(S(=O)(=O)c2cccc(S(=O)(=O)N3CC[C@H]4CC[C@@H](C(=O)NC(c5ccccc5)c5ccccc5)N4C(=O)[C@@H](NC(=O)[C@H](C)NC)C3)c2)CC[C@H]2CC[C@@H](C(=O)NC(c3ccccc3)c3ccccc3)N2C1=O` is recorded as 0% (patients with advanced solid tumours; 20 mg, phase I monotherapy).
`COc1ncccc1-c1cnn2ccc(N3CCN(C(=O)OC(C)C)CC3)nc12` has a drug concentration of 3.2 µM (mouse nerve ligation model, plasma; oral, 10 mg/kg, 30 min after last dose, repeat dosing day 1).
The MCH of `CCc1ccc(CC/C=C/c2ccc3c(c2)C(=O)CC3)cc1` is reported as 18.9 pg (Sprague-Dawley rat, female, blood; oral, 450 mg/kg/day, 14 days).
`C[C@@H]1OC(=O)NN=C1c1ccc(-c2ccc(F)cc2)c(C(F)(F)F)c1`: “patients with adverse event” 100% (phase I trial, refers to: Presyncope all grades; human patients; 10 mg loading then 0.5 mg daily).
